Published values of several laboratories.
Parts stem from different laboratories: compare values within a part only.

Series 1
Target: Sox, HMG box (Pigoraptor chileana)
Technique: Spec-seq
Form: double-stranded DNA, one strand shown
Sample: in vitro
Tested at: not given
Setting: whole probe, mean of replicates
Reference: not given
Reading: lower = stronger binding
Constant ends, left off below: GAGTCGTCTCGTCAGCAC … CCGTAGAGCACTCAGGTC
Residues (chain): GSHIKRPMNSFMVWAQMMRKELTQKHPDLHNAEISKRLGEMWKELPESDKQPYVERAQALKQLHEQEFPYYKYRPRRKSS
Oligonucleotide | relative binding energy
GTAAGTT | 0.835 ln ratio
GACCGTT | 1.06 ln ratio
GACTGTT | -1.42 ln ratio
CATGGGC | 0.465 ln ratio
CATAGAG | -0.482 ln ratio
CATACCT | 0.311 ln ratio

Series 2
Target: Prothrombin, mature alpha-thrombin (F2, Homo sapiens, UniProt P00734)
Technique: aptamer microarray, sandwich
Form: DNA with 2'F-ANA
Sample: in vitro
Tested at: 200 nM
Setting: whole 15-mer aptamer, many near background
Together with: Cy3 exosite-II aptamer, 400 nM
Reading: higher = stronger binding
Oligonucleotide: GGTTGGTGTGGTTGG
Modification | mean fluorescence intensity [a.u.]
2'F-ANA at 5 11 14 15 | 45.8
2'F-ANA at 1 2 5 6 8 9 12 | 116
2'F-ANA at 5 6 8 10 13 15 | 44.9
2'F-ANA at 2 3 7 12 | 1260
2'F-ANA at 1 4 6 11 12 13 | 146

Series 3
Target: RNA binding protein fox-1 homolog 2, RRM domain, GST-SBP tag (RBFOX2, Homo sapiens, UniProt O43251-10, residues 100-194)
Technique: RNA Bind-n-Seq
Form: RNA
Sample: in vitro
Tested at: 365 nM
Setting: natural RNA segment, single round, ends assumed
Reference: no-protein control
Reading: higher = stronger binding
Constant ends, left off below: GGGAGUUCUACAGUCCGACGAUC … UGGAAUUCUCGGGUGCCAA
Residues (chain): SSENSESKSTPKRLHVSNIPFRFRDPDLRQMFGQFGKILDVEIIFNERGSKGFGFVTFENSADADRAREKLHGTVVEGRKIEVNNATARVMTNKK
Oligonucleotide | RBNS enrichment (R)
UUCUGAAGAUUUUUUUGAAGAUUAAUUUAUACCCUAUAAAAUAAAACUUGUUAGCUUCGAUGAAGUCACUUCAUCUUCUCUCCUGCCUUAUUUUUUUAAAUAAGUUUUUA | 0.942
CAUGAUACUCUUCGGUGGUAGUUUCAAAAGACACUACUAAUACGCAGGAAGCGUUCCAGCUAUUUAAUGCUGGCAACUACUGUUUAAUGGUCAGUUAAAUCUGUGAUAAU | 0.251
GCUAAGUAGAAGCAGUCUCAGGCCUGCUGCUUGAGGCUGUUCUUGGCUUGGACCUGAAAUCUGCCCCCAACAGUGUCCAAGUGCACAUGACUUUGAGCCAUCUCCAGAGA | 0.981
AUGCAAAGGUUUCACUGAAAAUUUAAAUCAAAACAAAACAAAAACAAAGACCUUGUUACACAGAGAGCCUCCGAUAUCCUAAGUAGGGAGGACACUGUCAGUAGGGAACG | 0.507
ACAGAGGAGAUUAGGAUUUCAAAGAACAAAGAACUGCCCAGUUUCUAUUGGGCUCUUAGACACAGACCUGAGCCAUGAACCCAAGCCACGUAUCUACACCAUAGCUGCCU | 0.404
AGAUGUGGCAAGAUCACCAUUAGCAAAUGGAAAUUACAUUUGAAAGCCAUUAGACUUAUAGGUGAUGCAAGCAUCUAAGAGAGAGGUUAAUCACACUAUAGAGGCAUAAG | 0.451
CUCUUGUAUCUAGAUACUUUAAAUAUGGGAGGCCCUUUAACUUAAUUGCCUUUAGUCAACCACUGGAUUUGAAUUUGCAUCAAGUAUUUUAAAUAAUAUUGAAUUUAAAA | 0.721

Further values, each from its own experiment
Molecule | target | test | test system | conditions | how to read | quantity | value
PhoQ, residues 284 288 289 292 302 303 AAQSYM | PhoP, residues 12 14 15 18 19 SPWRL (Escherichia coli, UniProt P23836) | Sort-seq, measured: YFP reporter | E. coli | PhoQ-PhoP variant library, together with: 10 µM Mg2+ | reference: high Mg2+ state, higher = stronger signaling | fold induction | 0.981

Some of these lines once more (series 3):
Oligonucleotide | RBNS enrichment (R)
CAUGAUACUCUUCGGUGGUAGUUUCAAAAGACACUACUAAUACGCAGGAAGCGUUCCAGCUAUUUAAUGCUGGCAACUACUGUUUAAUGGUCAGUUAAAUCUGUGAUAAU | 0.251
UUCUGAAGAUUUUUUUGAAGAUUAAUUUAUACCCUAUAAAAUAAAACUUGUUAGCUUCGAUGAAGUCACUUCAUCUUCUCUCCUGCCUUAUUUUUUUAAAUAAGUUUUUA | 0.942
